Results pooled from the literature.
Parts stem from different laboratories: compare values within a part only.
Chain of UniProt Q9Y2U5 (whole entry, looked up): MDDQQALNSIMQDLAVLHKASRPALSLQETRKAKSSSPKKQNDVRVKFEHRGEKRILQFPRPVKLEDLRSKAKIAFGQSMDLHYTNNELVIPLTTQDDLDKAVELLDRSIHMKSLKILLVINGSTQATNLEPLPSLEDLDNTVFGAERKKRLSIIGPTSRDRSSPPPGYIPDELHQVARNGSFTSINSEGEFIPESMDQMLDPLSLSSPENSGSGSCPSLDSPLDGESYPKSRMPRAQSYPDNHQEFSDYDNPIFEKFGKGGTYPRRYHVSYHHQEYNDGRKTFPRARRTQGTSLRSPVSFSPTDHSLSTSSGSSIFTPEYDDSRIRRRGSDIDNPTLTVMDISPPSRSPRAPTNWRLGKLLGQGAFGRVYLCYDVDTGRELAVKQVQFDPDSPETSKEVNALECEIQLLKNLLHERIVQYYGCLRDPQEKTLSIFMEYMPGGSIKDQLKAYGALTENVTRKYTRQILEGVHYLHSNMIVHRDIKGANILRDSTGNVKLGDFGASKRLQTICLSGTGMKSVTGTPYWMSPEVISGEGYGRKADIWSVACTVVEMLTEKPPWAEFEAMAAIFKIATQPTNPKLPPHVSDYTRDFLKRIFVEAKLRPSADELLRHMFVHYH
Chain of UniProt P11362 (whole entry, looked up): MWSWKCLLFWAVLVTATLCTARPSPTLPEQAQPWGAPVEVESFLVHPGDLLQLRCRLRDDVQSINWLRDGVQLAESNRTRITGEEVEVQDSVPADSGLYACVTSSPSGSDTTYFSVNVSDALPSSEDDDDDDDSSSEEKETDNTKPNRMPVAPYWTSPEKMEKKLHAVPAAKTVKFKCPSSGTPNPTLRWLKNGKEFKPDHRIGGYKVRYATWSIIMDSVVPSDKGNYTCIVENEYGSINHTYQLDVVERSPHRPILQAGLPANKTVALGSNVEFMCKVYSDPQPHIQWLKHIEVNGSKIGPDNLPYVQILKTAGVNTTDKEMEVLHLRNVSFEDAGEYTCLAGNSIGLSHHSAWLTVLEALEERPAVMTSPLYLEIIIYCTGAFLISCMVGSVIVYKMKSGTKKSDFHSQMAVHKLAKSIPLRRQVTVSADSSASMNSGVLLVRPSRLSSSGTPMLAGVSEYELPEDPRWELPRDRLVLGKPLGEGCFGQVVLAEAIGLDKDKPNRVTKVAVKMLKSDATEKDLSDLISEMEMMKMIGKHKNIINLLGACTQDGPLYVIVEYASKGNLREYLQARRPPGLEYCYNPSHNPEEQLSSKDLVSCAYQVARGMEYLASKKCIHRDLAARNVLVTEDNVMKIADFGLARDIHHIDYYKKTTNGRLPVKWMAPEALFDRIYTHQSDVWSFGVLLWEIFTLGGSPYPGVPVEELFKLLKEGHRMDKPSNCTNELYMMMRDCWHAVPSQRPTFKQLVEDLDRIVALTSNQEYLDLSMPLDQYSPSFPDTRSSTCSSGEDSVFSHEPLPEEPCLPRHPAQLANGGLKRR
Chain of UniProt Q6PHR2 (whole entry, looked up): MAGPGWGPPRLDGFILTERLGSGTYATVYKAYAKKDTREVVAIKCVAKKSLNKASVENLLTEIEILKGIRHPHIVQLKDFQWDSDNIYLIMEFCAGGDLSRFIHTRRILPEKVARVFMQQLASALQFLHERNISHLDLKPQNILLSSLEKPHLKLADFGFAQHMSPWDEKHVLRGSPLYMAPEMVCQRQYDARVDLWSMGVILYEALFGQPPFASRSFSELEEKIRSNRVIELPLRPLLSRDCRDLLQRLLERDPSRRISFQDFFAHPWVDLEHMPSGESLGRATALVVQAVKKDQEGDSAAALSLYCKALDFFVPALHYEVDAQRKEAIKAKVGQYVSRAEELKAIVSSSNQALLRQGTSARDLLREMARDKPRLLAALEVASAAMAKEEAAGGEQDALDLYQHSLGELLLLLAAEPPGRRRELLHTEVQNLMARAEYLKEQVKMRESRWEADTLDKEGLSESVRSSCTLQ
Chain of UniProt O75582 (whole entry, looked up): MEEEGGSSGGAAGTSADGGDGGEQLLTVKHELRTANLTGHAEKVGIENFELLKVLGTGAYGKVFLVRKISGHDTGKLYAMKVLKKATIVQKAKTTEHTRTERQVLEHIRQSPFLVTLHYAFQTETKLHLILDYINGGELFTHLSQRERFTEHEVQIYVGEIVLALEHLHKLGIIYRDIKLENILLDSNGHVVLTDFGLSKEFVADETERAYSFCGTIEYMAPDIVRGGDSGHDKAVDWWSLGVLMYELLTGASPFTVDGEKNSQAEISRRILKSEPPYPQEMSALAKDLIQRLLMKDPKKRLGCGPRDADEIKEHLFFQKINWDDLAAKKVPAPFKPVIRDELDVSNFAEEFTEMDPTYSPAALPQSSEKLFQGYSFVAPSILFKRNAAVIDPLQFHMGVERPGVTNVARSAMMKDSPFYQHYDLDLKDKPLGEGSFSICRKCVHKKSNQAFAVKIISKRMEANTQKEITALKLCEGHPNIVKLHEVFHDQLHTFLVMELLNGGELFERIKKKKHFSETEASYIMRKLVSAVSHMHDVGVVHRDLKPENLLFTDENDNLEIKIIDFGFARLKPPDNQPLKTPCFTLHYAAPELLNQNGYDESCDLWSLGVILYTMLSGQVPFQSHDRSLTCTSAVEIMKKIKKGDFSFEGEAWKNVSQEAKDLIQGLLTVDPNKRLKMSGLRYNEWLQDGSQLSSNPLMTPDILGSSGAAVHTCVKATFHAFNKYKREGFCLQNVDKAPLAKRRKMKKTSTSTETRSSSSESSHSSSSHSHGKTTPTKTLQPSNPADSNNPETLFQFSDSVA
Chain of UniProt O15111 (whole entry, looked up): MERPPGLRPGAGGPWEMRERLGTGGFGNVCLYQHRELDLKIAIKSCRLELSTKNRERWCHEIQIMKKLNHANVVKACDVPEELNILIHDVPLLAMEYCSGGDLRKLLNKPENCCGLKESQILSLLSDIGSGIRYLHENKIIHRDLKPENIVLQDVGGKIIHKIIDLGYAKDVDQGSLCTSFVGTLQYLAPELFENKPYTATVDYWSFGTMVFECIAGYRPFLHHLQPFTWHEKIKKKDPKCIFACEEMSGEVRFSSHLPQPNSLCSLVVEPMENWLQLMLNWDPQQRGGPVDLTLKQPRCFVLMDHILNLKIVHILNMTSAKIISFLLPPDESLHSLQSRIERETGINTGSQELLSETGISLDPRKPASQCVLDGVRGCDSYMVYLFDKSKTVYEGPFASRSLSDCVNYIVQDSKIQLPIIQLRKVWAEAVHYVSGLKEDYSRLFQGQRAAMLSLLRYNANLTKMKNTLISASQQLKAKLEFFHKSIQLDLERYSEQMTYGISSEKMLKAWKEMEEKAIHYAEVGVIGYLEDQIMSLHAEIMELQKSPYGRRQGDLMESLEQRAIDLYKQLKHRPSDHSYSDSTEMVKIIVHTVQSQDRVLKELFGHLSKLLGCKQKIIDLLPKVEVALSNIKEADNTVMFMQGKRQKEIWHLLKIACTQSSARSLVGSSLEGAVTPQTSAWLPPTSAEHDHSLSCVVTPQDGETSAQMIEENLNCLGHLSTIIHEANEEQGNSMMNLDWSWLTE
Chain of UniProt Q13882 (whole entry, looked up): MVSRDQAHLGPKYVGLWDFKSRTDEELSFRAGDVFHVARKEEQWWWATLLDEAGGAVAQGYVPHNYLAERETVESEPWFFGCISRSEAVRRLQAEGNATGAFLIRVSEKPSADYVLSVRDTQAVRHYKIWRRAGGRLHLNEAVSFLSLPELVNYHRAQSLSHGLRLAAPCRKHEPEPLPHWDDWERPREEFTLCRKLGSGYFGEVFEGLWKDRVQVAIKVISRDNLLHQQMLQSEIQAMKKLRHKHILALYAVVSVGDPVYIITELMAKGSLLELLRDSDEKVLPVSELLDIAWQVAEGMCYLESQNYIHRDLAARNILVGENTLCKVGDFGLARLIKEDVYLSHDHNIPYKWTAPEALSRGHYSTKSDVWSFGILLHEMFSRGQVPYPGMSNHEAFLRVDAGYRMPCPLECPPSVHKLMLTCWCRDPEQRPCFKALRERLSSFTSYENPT
Chain of UniProt Q13163 (whole entry, looked up): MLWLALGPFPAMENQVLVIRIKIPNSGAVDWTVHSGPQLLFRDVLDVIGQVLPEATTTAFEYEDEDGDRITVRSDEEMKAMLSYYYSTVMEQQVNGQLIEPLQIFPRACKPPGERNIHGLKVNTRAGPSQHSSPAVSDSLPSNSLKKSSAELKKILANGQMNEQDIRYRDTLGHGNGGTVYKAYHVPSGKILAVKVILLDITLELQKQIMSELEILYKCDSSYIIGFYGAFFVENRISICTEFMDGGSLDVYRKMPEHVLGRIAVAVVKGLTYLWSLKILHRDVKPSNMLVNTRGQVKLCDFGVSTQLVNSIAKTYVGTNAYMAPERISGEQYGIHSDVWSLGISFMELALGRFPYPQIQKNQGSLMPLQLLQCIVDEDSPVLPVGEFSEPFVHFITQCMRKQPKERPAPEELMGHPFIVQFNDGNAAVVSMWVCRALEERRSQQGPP
Chain of UniProt P53350 (whole entry, looked up): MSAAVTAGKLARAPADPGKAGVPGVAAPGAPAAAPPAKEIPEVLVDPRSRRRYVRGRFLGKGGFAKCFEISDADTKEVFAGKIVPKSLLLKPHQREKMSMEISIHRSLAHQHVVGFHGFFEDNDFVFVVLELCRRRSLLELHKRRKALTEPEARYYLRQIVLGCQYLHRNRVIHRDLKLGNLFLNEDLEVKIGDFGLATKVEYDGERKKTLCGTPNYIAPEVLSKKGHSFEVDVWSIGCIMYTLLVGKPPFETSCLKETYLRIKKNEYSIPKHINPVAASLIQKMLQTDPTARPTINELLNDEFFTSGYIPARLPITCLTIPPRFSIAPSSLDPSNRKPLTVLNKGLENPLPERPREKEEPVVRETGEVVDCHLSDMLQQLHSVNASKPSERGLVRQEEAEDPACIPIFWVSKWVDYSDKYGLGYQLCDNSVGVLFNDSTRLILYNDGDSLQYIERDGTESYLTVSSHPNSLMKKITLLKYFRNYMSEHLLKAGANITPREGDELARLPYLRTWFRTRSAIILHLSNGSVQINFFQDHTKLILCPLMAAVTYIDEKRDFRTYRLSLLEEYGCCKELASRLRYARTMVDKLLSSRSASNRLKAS

Series 1 — cell line: HaCaT; tested at: 100 µM; time: 36 h
Structure (SMILES) | viability [%]
CCCCCCCCN[C@@H](C)[C@H](O)c1ccc(SC(C)C)cc1 (racemic) | 6.1
CC(=O)N(O)CCCCCNC(=O)CCC(=O)N(O)CCCCCNC(=O)CCC(=O)N(O)CCCCCN | 31.8
CCOc1cc(CC(=O)N[C@@H](CC(C)C)c2ccccc2N2CCCCC2)ccc1C(=O)O | 97.5
O=C(O)c1cc(=O)c2ccccc2o1 | 81.6

Series 2 — read-out: cell-free assay; technique: competition with immobilised ligand; tested at: 1 µM
Structure (SMILES): CO[C@@H](C)c1c(Nc2ccc([C@H](N(C)C(=O)C3CCS(=O)(=O)CC3)C(F)(F)F)cc2)cnc2cc(Cl)nn12
target | remaining binding
Tyrosine-protein kinase ABL1, non-phosphorylated (ABL1, Homo sapiens, UniProt P00519, T315I) | 100%
PLK1 (Homo sapiens, UniProt P53350) | 77%
FLT3 (Homo sapiens, UniProt P36888, D835V) | 59%
MAP2K5 (Homo sapiens, UniProt Q13163) | 60%
FGFR1 (Homo sapiens, UniProt P11362) | 74%
PTK6 (Homo sapiens, UniProt Q13882) | 81%
PIK3CA (Homo sapiens, UniProt P42336, Q546K) | 100%
Ribosomal protein S6 kinase alpha-5, N-terminal kinase domain (RPS6KA5, Homo sapiens, UniProt O75582) | 86%
KIT (Homo sapiens, UniProt P10721, V559D/V654A) | 92%
ULK3 (Homo sapiens, UniProt Q6PHR2) | 94%
CHUK (Homo sapiens, UniProt O15111) | 100%
EGFR (Homo sapiens, UniProt P00533, L861Q) | 100%
MAP3K2 (Homo sapiens, UniProt Q9Y2U5) | 100%

Series 3 — technique: aptamer microarray, sandwich; form: DNA with 2'F-ANA; medium: in vitro; tested at: 200 nM; added: Cy3 exosite-II aptamer, 400 nM; direction: higher = stronger binding; oligonucleotide: GGTTGGTGTGGTTGG
Target: Prothrombin, mature alpha-thrombin (F2, Homo sapiens, UniProt P00734)
Setting: whole 15-mer aptamer, many near background
Modification | mean fluorescence intensity
2'F-ANA at 1 2 3 5 6 7 8 10 11 12 13 15 | 54.4 a.u.
2'F-ANA at 4 5 7 8 11 12 13 | 83.9 a.u.
2'F-ANA at 1 3 4 7 8 9 11 12 13 14 15 | 151 a.u.
2'F-ANA at 1 2 3 4 5 6 7 9 10 14 | 52.8 a.u.
2'F-ANA at 6 7 8 9 10 11 12 14 | 255 a.u.
2'F-ANA at 1 4 6 7 8 9 10 13 15 | 53.5 a.u.
2'F-ANA at 2 6 7 15 | 443 a.u.
2'F-ANA at 1 3 4 6 7 13 | 139 a.u.

Series 4 — species: mouse, EL4 tumour-bearing; medium: EL4 tumour; dose: dose not given; baseline: vehicle
SMILES: CC(=O)N[C@@H](Cc1c[nH]c2ccccc12)C(=O)N[C@@H](CCC(=O)C=[N+]=[N-])C(=O)OC(C)C
test | log2 fold change
item: 3-methylcytidine | -0.28
item: creatinine | 1.17
item: glutamine | 0.57

Series 5 — organism: Sarcocystis neurona; read-out: parasite growth; tested at: 10 µM; setting: secondary screen
Compound | inhibition [%]
OCCN1CCN(CCCN2c3ccccc3Sc3ccc(Cl)cc32)CC1 | 84.5
COc1cc2nc(N3CCN(C(=O)c4ccco4)CC3)nc(N)c2cc1OC | 75
O=c1[nH]c(=O)n([C@H]2C[C@H](O)[C@@H](CO)O2)cc1F | 17
COc1cccc2c1C(=O)c1c(O)c3c(c(O)c1C2=O)C[C@@](O)(C(=O)CO)C[C@@H]3O[C@H]1C[C@H](N)[C@H](O)[C@H](C)O1 | 42.2

Other studies, line by line
Compound | test system | conditions | measurement | result
Oc1c(-c2nc(-c3cccs3)no2)cnc2ccccc12 | human, microsomes or S9 | 2 µM, 0.5 h | remaining compound | 1.35%
